{"data": "Results of several laboratories", "note": "A part holds a random share of what one study measured. Changes are numbered by the printed parent chain."}
{"data": "Sample 1", "target": "RNA binding protein fox-1 homolog 2, RRM domain, GST-SBP tag (RBFOX2, Homo sapiens, UniProt O43251-10, residues 100-194)", "technique": "RNA Bind-n-Seq", "molecule type": "RNA", "medium": "in vitro", "tested at": "365 nM", "notes": "natural RNA segment, single round, ends assumed", "reference": "no-protein control", "reading": "higher = stronger binding", "constant ends, left off below": "GGGAGUUCUACAGUCCGACGAUC … UGGAAUUCUCGGGUGCCAA", "Target sequence (chain)": "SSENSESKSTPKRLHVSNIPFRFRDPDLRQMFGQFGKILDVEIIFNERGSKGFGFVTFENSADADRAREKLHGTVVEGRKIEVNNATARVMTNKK"}
{"Oligonucleotide": "CUGCUGCAGUUUUUUGACUCCUGUCUGGUGGAACAUCCUGGAUUUCUUGGAUUUUUAGGUGUAAUUUGCCAAGGUCUUGGAAUCUUUUUCCCAAGAGCAUGAUAGAAAGA", "RBNS enrichment (R)": 3.03}
{"Oligonucleotide": "GGCUCUGUCUCUAAGCCAGGUGUCAGGAUCAGAAUCAUGGGUAGAAGGUGCCAUUCAGCUCACAGCCGCACCCAGAAUCCUUUGCAGCCCUCCUUCUUUAUUUUUUUCCC", "RBNS enrichment (R)": 0.583}
{"Oligonucleotide": "GAGCAGCUCCUUGAAGAGAUUUACCUUCAGCUUAUUUGGUAACCACUGCUAAUAACUAAAAUGUUCUCAGCUUGGAAUAAUGGACUCUGAAGUCUCUAUUUUCCAAGUUG", "RBNS enrichment (R)": 0.317}
{"Oligonucleotide": "UUAAAAUCCCCUUCGCACUGCAGCAGUGCCCACCCCCUUCAUGUGAUUGUACAGUAUUCAAACUUUUUCUUAUGUACAGUAAACUUUACCAUAUGGCAAAGGCCUUUAUU", "RBNS enrichment (R)": 0.609}
{"Oligonucleotide": "GCAGGUAAUUCUGAUGCAUGCUCAAGUUUGAGAACCACUGGCCUAGAAGAAAUGAACUACUGCAACUUAUGAGGAAUCAUGAGAUCCAGCUCACUUUUGCUCAAUACCUA", "RBNS enrichment (R)": 9}
{"data": "Sample 2", "target": "ABI1, truncated, D143A, DHFR fusion (Arabidopsis thaliana)", "technique": "DHFR PCA, deep sequencing", "medium": "yeast", "notes": "methotrexate growth selection, single substitutions", "with": "(+)-ABA 710 µM", "reference": "wild-type fitted maximum", "reading": "higher = stronger binding", "starting sequence": "PYL1, truncated, DHFR fusion (Arabidopsis thaliana); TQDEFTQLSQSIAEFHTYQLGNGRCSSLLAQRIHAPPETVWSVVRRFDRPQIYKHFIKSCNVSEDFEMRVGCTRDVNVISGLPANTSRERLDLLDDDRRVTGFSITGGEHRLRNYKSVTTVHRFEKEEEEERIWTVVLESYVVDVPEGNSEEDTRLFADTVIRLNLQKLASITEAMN; partner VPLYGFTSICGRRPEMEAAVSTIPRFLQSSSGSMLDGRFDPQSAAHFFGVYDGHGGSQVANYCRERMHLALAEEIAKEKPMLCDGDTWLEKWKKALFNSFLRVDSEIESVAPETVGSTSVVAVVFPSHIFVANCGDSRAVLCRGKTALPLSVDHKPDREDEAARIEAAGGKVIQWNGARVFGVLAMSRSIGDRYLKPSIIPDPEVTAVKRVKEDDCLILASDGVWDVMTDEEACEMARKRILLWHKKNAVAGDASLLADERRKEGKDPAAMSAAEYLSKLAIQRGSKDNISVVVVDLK"}
{"Substitution": "S63F", "relative binding score [%]": 91.7}
{"Substitution": "V143N", "relative binding score [%]": -5.65}
{"Substitution": "I12D", "relative binding score [%]": 57.9}
{"data": "Sample 3", "target": "Histone acetyltransferase KAT6A, both winged helices, GST fusion (KAT6A, Homo sapiens, UniProt Q92794, residues 1-181)", "technique": "protein binding microarray", "molecule type": "double-stranded DNA, one strand shown", "medium": "in vitro", "tested at": "not given", "notes": "8-mer, flanks averaged, mean of 2 arrays, mostly near background", "reference": "not given", "reading": "higher = stronger binding", "Target sequence (chain)": "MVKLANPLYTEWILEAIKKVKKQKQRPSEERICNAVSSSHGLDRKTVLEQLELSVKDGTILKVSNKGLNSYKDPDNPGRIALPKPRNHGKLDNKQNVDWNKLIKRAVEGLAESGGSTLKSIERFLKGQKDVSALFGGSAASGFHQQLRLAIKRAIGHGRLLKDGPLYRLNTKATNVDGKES"}
{"Oligonucleotide": "CAATCGCG", "E-score": 0.14}
{"Oligonucleotide": "CCTATAGA", "E-score": -0.0387}
{"Oligonucleotide": "CACTTTGC", "E-score": -0.0808}
{"Oligonucleotide": "AATGGTGG", "E-score": -0.181}
{"Oligonucleotide": "AACCAGCC", "E-score": 0.0248}
{"Oligonucleotide": "CCCGGTGA", "E-score": 0.144}
{"data": "Other studies, line by line"}
{"Substance": "PhoQ, residues 284 288 289 292 302 303 SNSSNI", "target": "PhoP, residues 12 14 15 18 19 NNFVT (Escherichia coli, UniProt P23836)", "assay": "Sort-seq, refers to: YFP reporter", "test system": "E. coli", "setting": "PhoQ-PhoP variant library, with: 10 µM Mg2+", "how to read": "reference: high Mg2+ state, higher = stronger signaling", "quantity": "fold induction", "result": 1.56}
